# Experimental data from different studies.
# Lines come from different studies, so protocols differ. “And” joins repeats or separate records; there may be more than shown. ± gives the spread as reported.
# Sequence of UniProt P0A8V2 (whole entry, looked up): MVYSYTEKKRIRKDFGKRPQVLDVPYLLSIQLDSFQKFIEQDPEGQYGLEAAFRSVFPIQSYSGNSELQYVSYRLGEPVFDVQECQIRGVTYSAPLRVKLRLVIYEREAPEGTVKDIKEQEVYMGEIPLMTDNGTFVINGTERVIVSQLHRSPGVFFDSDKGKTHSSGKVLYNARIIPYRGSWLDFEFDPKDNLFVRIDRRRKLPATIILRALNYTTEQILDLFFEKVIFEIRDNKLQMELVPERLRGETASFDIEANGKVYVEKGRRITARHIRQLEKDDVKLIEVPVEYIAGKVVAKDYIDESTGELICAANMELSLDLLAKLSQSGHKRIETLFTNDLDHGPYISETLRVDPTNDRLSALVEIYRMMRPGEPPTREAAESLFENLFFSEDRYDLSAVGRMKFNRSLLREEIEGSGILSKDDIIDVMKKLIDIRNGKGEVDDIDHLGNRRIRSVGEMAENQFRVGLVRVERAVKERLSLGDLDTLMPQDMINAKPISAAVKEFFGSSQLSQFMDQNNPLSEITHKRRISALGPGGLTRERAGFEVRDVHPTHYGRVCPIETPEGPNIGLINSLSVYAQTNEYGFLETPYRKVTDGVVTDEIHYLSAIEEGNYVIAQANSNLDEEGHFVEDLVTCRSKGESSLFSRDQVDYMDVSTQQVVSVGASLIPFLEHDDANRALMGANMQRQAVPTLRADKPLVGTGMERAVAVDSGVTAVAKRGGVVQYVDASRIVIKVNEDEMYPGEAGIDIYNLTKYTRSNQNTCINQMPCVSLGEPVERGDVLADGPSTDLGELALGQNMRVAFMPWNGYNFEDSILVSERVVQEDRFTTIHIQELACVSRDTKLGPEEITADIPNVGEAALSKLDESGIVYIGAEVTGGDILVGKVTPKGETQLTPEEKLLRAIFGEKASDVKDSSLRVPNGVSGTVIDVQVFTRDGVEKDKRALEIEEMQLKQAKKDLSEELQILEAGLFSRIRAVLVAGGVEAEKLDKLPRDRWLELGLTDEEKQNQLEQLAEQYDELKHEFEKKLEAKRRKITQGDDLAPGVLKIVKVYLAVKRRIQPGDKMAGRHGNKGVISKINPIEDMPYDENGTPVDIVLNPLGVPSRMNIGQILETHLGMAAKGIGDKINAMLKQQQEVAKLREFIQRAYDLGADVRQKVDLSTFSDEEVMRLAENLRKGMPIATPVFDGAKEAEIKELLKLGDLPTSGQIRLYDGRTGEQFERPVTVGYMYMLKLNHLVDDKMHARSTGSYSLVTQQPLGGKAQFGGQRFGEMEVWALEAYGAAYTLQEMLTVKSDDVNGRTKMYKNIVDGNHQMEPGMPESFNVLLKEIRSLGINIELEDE
# Sequence of UniProt P08684 (whole entry, looked up): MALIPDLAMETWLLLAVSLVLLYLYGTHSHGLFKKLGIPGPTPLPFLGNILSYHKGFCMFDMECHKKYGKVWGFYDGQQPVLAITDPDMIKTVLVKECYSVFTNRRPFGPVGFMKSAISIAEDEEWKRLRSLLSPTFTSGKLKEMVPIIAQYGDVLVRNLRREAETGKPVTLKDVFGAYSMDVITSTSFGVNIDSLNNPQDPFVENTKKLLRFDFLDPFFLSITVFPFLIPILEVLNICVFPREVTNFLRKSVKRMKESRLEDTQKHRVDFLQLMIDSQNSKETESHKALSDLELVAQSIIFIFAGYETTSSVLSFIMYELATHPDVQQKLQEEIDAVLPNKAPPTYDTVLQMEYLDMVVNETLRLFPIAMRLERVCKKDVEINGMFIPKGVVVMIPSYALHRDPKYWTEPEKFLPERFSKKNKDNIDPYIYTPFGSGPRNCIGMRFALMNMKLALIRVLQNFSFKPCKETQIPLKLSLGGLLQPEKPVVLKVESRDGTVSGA
# Sequence of UniProt P0A8T7 (whole entry, looked up): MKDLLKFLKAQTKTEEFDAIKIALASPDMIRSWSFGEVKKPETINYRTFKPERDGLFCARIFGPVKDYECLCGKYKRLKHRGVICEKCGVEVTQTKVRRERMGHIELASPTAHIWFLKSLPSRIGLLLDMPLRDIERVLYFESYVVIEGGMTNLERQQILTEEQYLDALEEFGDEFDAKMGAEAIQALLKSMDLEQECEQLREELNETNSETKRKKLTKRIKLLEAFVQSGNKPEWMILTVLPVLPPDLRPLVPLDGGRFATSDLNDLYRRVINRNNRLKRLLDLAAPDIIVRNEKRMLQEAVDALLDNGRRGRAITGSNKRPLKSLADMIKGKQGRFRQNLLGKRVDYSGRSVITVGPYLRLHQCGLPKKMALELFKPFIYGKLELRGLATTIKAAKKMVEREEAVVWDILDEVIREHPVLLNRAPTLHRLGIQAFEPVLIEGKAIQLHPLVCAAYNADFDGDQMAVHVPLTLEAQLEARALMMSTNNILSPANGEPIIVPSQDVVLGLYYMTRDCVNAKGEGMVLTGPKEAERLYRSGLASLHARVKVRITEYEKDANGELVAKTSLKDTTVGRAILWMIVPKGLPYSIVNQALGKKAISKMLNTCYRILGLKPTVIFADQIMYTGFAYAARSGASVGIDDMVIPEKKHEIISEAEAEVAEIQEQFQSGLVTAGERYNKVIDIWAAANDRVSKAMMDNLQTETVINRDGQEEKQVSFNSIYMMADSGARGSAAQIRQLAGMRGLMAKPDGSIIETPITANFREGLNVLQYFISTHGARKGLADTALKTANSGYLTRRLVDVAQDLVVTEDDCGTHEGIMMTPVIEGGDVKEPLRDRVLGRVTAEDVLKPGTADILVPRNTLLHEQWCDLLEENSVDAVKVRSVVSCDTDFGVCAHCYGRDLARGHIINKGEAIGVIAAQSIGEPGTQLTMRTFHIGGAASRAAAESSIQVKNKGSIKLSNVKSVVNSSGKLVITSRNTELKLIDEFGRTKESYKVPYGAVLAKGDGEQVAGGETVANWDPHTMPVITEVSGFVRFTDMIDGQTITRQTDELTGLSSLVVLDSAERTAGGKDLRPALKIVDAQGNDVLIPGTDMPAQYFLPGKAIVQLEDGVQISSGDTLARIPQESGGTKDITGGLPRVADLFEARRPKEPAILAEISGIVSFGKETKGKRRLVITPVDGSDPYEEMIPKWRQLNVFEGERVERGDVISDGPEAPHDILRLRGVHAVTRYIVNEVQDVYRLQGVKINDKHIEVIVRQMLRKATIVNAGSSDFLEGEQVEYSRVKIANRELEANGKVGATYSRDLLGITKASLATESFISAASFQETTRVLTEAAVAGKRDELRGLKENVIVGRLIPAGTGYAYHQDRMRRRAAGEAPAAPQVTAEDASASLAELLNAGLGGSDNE
Substance,target or system,test,test system,conditions,how to read,endpoint,value
Cn1cnc(Cn2c(=O)[nH]/c(=N\c3cc4cn(C)nc4cc3Cl)n(Cc3cc(F)c(F)cc3F)c2=O)n1,,,"human, moderate renal impairment","oral, 375 mg",,"treatment-related TEAE, Mild severity",0%
YCIDGALLTKSSEYK,human CD4 T cells,AIM,peptide,,,responding donors,7%
CC(C)(Nc1nc(N2CCNCC2)nc2ccccc12)c1ccccc1,SARS-CoV-2,cytopathic effect,USA_WA1/2020,"round 2, 5-point",,maximum response,50.6%
Cc1cc(/C=C/C#N)cc(C)c1Nc1nc(Nc2ccc3cc(C#N)ccc3c2)ncc1N,HIV-1,"viral replication, single-round infection",RT mutant P236L,,,EC50,≤ 0.0021 µM
CC[C@H](C)[C@H](NC(=O)[C@H](CC(C)C)NC(=O)[C@H](Cc1c[nH]c2ccccc12)NC(=O)[C@H](CCC(N)=O)NC(=O)[C@@H](NC(=O)[C@H](Cc1ccccc1)NC(=O)[C@H](C)NC(=O)[C@H](CCCCNC(=O)COCCOCCNC(=O)COCCOCCNC(=O)CC[C@H](NC(=O)CCCCCCCCCCCCCCCCCCC(=O)O)C(=O)O)NC(=O)[C@H](CCC(N)=O)NC(=O)[C@H](C)NC(=O)[C@@H](NC(=O)[C@H](CCCCN)NC(=O)[C@H](CC(=O)O)NC(=O)[C@H](CC(C)C)NC(=O)C(C)(C)NC(=O)[C@@H](NC(=O)[C@H](CO)NC(=O)[C@H](Cc1ccc(O)cc1)NC(=O)[C@H](CC(=O)O)NC(=O)[C@H](CO)NC(=O)[C@@H](NC(=O)[C@H](Cc1ccccc1)NC(=O)[C@@H](NC(=O)CNC(=O)[C@H](CCC(=O)O)NC(=O)C(C)(C)NC(=O)[C@@H](N)Cc1ccc(O)cc1)[C@@H](C)O)[C@@H](C)O)[C@@H](C)CC)[C@@H](C)CC)C(C)C)C(=O)N[C@@H](C)C(=O)NCC(=O)NCC(=O)N1CCC[C@H]1C(=O)N[C@@H](CO)C(=O)N[C@@H](CO)C(=O)NCC(=O)N[C@@H](C)C(=O)N1CCC[C@H]1C(=O)N1CCC[C@H]1C(=O)N1CCC[C@H]1C(=O)N[C@@H](CO)C(N)=O,,,human,"subcutaneous, 15.0 mg once weekly, week 23, multiple doses",,CL/F,0.7 mL/min
TTDPSFLGRY,,AIM,"peptide, CD8+ T cells from PBMC, human donors","HLA-A*01:01 restricted, unit not given",relative to: positive over tested donors,frequency of responding donors,100
Nc1ncnc2c([C@@H]3N[C@H](CO)[C@@H](O)[C@H]3O)c[nH]c12,Marburg virus,viral RNA in cell lysate,"HeLa, Musoke","12.5 µM, 1 h",,inhibition,93.9%
CCc1c(C(=O)C(N)=O)c2c(OCC(=O)O)cccc2n1Cc1ccccc1,C2C12,,,"1 µM, added: PB venom",relative to: venom alone,viability difference,9.27%
CC(=O)O[C@@H]1[C@H](N)[C@@H](OP(=O)(O)O)[C@@]2(C(=O)O)CS[C@@](O)(C(N)=O)[C@@H]1O2,"DNA-directed RNA polymerase subunit beta' / DNA-directed RNA polymerase subunit beta (rpoC/rpoB, Escherichia coli, UniProt P0A8T7+P0A8V2)","binding to elongation complex, 6-MI fluorescence titration",wild-type RNAP,2′-deoxy RNA 3′-end Cytosine,,Kd,3.8 ± 1.1 µM
O=C1Nc2ccc(Cl)cc2[C@@](C#CC2CC2)(C(F)(F)F)O1,HIV-1,"viral replication, single-round infection",RT mutant V106A/F227L/L234I,,,EC50,0.0034 ± 0.0003 µM
ω-agatoxin IVA,,"cAMP signalling, high-content microscopy","DRG neurons, rat, spinal cord injury","dose not given, normalised 0 to 1, unit not given, added: forskolin, DAMGO 0.3","relative to: DAMGO maximum, higher = stronger inhibition",PKA-RII phosphorylation inhibition,0.838 and 0.732 and 0.568
Cc1cn([C@H]2C[C@H](N=[N+]=[N-])[C@@H](CO)O2)c(=O)[nH]c1=O,HIV-1,viral replication,"human PBMC, subtype C 93MW959, CCR5-tropic clinical isolate",,,EC50,0.00436 ± 0.00247 µM
KKRWQLALSKGVHFV,human CD4 T cells,AIM,peptide,,,responding donors,18%
CN(C)CCNC(=O)c1ccc2c(c1)C1(CCN(CC3CC3)C1)CN2Cc1ccccc1 (stereo not shown),SARS-CoV-2,"cytopathic effect, cell-based CPE",USA_WA1/2020,"round 2, 5-point dilution",,AC50,5.01 µM
LPYGK,,DSC,"peptide, 7/3 SOPC/cholesterol bilayers","5 mol%, pH 7.40, SOPC chain melting transition",,transition enthalpy,0.8 kcal/mol
CSCC[C@H](NC(=O)[C@H](CCCNC(=N)N)NC(=O)[C@H](Cc1ccccc1)NC(=O)[C@H](CS)NC(=O)[C@H](C)NC(=O)[C@@H](NC(=O)[C@@H](NC(=O)[C@H](C)NC(=O)[C@H](CCCNC(=N)N)NC(=O)[C@H](CCCNC(=N)N)NC(=O)[C@H](CCCNC(=N)N)NC(=O)[C@H](CCC(N)=O)NC(=O)[C@H](CCCCN)NC(=O)[C@H](CO)NC(=O)[C@H](CC(C)C)NC(=O)[C@H](CC(C)C)NC(=O)[C@H](CCCCN)NC(=O)[C@H](Cc1c[nH]cn1)NC(=O)[C@H](Cc1c[nH]c2ccccc12)NC(=O)[C@@H](NC(=O)[C@H](C)NC(=O)[C@H](CCCCN)NC(=O)[C@H](CCCCN)NC(=O)[C@H](CO)NC(=O)[C@H](CCCCN)NC(C)=O)C(C)C)C(C)C)C(C)C)C(=O)N[C@H](C(=O)N1CCC[C@H]1C(=O)N[C@@H](CC(C)C)C(=O)N[C@@H](Cc1ccc(O)cc1)C(=O)N[C@@H](CC(N)=O)C(N)=O)[C@@H](C)O,calmodulin 76-148 sites III and IV,"calcium binding, Tyr fluorescence titration",,"12 µM, pH 7.4, 22 °C, added: 6 µM calmodulin",,apparent ΔG1,-9.37 ± 0.31 kcal/mol
KNTQEVFAQVKQIYK,human CD4 T cells,AIM,peptide,,,responding donors,8%
Cn1cnc(Cn2c(=O)[nH]/c(=N\c3cc4cn(C)nc4cc3Cl)n(Cc3cc(F)c(F)cc3F)c2=O)n1,"Cytochrome P450 3A4 (CYP3A4, Homo sapiens, UniProt P08684)",inhibitor,human liver microsomes,"0 min preincubation, added: testosterone 60 µM",,IC50,> 100 µM
CCCC(=O)OCSc1ccccc1C(=O)NCCC(N)=O,HIV-1,viral replication,"human PBMC, subtype B 92BR014, dual-tropic clinical isolate",,,EC50,3.41 ± 3.26 µM
ASMPTTIAK,,AIM,"peptide, CD8+ T cells from PBMC, human donors","HLA-A*30:01 restricted, unit not given",relative to: positive over tested donors,frequency of responding donors,100
CC(Nc1nc(N2CCN(CCN)CC2)nc2ccccc12)c1ccccc1 (stereo not shown),SARS-CoV-2,cytopathic effect,USA_WA1/2020,retest 8-point,,efficacy,123%
CC[C@H](C)[C@H](NC(=O)[C@H](CC(C)C)NC(=O)[C@H](Cc1c[nH]c2ccccc12)NC(=O)[C@H](CCC(N)=O)NC(=O)[C@@H](NC(=O)[C@H](Cc1ccccc1)NC(=O)[C@H](C)NC(=O)[C@H](CCCCNC(=O)COCCOCCNC(=O)COCCOCCNC(=O)CC[C@H](NC(=O)CCCCCCCCCCCCCCCCCCC(=O)O)C(=O)O)NC(=O)[C@H](CCC(N)=O)NC(=O)[C@H](C)NC(=O)[C@@H](NC(=O)[C@H](CCCCN)NC(=O)[C@H](CC(=O)O)NC(=O)[C@H](CC(C)C)NC(=O)C(C)(C)NC(=O)[C@@H](NC(=O)[C@H](CO)NC(=O)[C@H](Cc1ccc(O)cc1)NC(=O)[C@H](CC(=O)O)NC(=O)[C@H](CO)NC(=O)[C@@H](NC(=O)[C@H](Cc1ccccc1)NC(=O)[C@@H](NC(=O)CNC(=O)[C@H](CCC(=O)O)NC(=O)C(C)(C)NC(=O)[C@@H](N)Cc1ccc(O)cc1)[C@@H](C)O)[C@@H](C)O)[C@@H](C)CC)[C@@H](C)CC)C(C)C)C(=O)N[C@@H](C)C(=O)NCC(=O)NCC(=O)N1CCC[C@H]1C(=O)N[C@@H](CO)C(=O)N[C@@H](CO)C(=O)NCC(=O)N[C@@H](C)C(=O)N1CCC[C@H]1C(=O)N1CCC[C@H]1C(=O)N1CCC[C@H]1C(=O)N[C@@H](CO)C(N)=O,,,"healthy subjects, single ascending dose","5.0 mg, postbaseline",,treatment-emergent ADA positive subjects,0%
CNc1cc(C)nc(N2C[C@@H]3NC(=O)CCCNC(=O)c4cccc(c4)-c4cccc(c4)CO[C@H]3C2)n1,Lassa mammarenavirus,viral replication,Huh-7,"10 µM, 72 h",,remaining activity,61%
Cc1cc(/C=C/C#N)cc(C)c1Nc1ccnc(Nc2ccc(C#N)cc2)n1,HIV-1,"viral replication, single-round infection",RT mutant M184V,,,EC50,0.0001 µM
CNC(=O)[C@@H](NC(=O)[C@H](CC(C)C)[C@H](O)C(=O)NO)C(C)(C)C,Daboia russelii venom proteases (SVMP),"protease activity, inhibitor",AP population,"0.001 µM, added: azocasein substrate",relative to: venom alone,remaining activity,98.4% and 99.6% and 97.7%
CCC(CC)C(=O)N1CC(=O)N[C@@H](CC(C)C)c2nc(cs2)C(=O)N[C@@H](Cc2ccccc2)c2nc(C)nn2CC(=O)N[C@@H](C(C)C)C1,Lassa mammarenavirus,viral replication,Huh-7,"10 µM, 72 h",,remaining activity,98%
O=C(Nc1cccc(Cl)c1)C1CCCN(Cc2cccc(-c3ccc(F)cc3F)c2)C1 (stereo not shown),SARS-CoV-2,cytopathic effect,USA_WA1/2020,"retest, 8-point, duplicates",,maximum response,7.04%
CCOc1ncccc1CNc1cc(C)nc2c(C)c(C)nn12,Lassa mammarenavirus,viral replication,Huh-7,"10 µM, 72 h",,remaining activity,60%
Cc1cc(/C=C/C#N)cc(C)c1-n1cnc2cnc(Nc3ccc4cc(C#N)ccc4c3)nc21,HIV-1,"viral replication, single-round infection",RT mutant P236L,,,EC50,≤ 0.0021 µM
EFVFKNIDGYFKIYS,human CD4 T cells,AIM,peptide,,,responding donors,18%
Cc1cc(/C=C/C#N)cc(C)c1Nc1nc(Nc2ccc3cc(/C=C/C#N)ccc3c2)ncc1N,HIV-1,"viral replication, single-round infection",RT mutant V106A,,,EC50,0.295 ± 0.029 µM
COc1ccc(Nc2cc(C(=O)NCCCN(C)Cc3ccccc3)c3ccccc3n2)cc1,SARS-CoV-2,"cytopathic effect, cell-based CPE",USA_WA1/2020,"round 2, 5-point dilution",,AC50,11.2 µM
C[n+]1ccc(-c2cc[n+](C)cc2)cc1,,,rat paraquat poisoning,"dose not given, event flag 1",,survival time,3 days and 1 days and 6 days and 5 days and 4 days and 2 days
HLMSFPQSA,,AIM,"peptide, CD8+ T cells from PBMC, human donors","HLA-A*02:01 restricted, unit not given",relative to: positive over tested donors,frequency of responding donors,17
CCCOC(C(=O)OC1CCN(C)CC1)(c1ccccc1)c1ccccc1,HeLa,Ebola VLP entry,,,,IC50,12.2 µM
Nc1ncnc2c1ncn2[C@H]1C[C@H](O)[C@@H](COP(=O)(O)OP(=O)(O)OP(=O)(O)O)O1,"Gag-Pol polyprotein, reverse transcriptase (gag-pol, Human immunodeficiency virus type 1 group M subtype B, UniProt P04585, K653N)",substrate,,"K66N mutant, added: matched T:A primer template",,Km,0.0853 ± 0.0223 µM
Cc1nc2n(n1)CC(=O)N[C@@H](C(C)C)CN(Cc1ccccn1)CC(=O)N[C@@H](CC(C)C)c1nc(cs1)C(=O)N[C@H]2Cc1ccccc1,Lassa mammarenavirus,viral replication,Huh-7,"10 µM, 72 h",,remaining activity,90%
Oc1ccccc1-c1nc(-c2cccs2)c(-c2cccs2)[nH]1,SARS-CoV-2,cytopathic effect,USA_WA1/2020,"round 1, 5-point",,maximum response,48%
TLADAGFIK,,AIM,"peptide, CD8+ T cells from PBMC, human donors","HLA-A*03:01 restricted, unit not given",relative to: positive over tested donors,frequency of responding donors,25
COc1ccccc1-c1ccc(CN2CCCC(c3nc4ccc(C)cc4c(=O)[nH]3)C2)cc1 (stereo not shown),SARS-CoV-2,cytopathic effect,USA_WA1/2020,"round 1, 5-point",,efficacy,93.8%
O=C(c1ccc(-c2ccccc2)cc1)C1CCCN(C(=O)CCc2ccncc2)C1 (stereo not shown),Lassa mammarenavirus,viral replication,Huh-7,"10 µM, 72 h",,remaining activity,45%
CCN(CC)Cc1ccc(Nc2ccnc3cc(Cl)ccc23)cc1O,SARS-CoV-2,cytopathic effect,USA_WA1/2020,"round 2, 5-point",,efficacy,97.2%
COP(=S)(OC)Oc1ccc([N+](=O)[O-])c(C)c1,rat CYP2C,tolbutamide hydroxylation,liver microsomes,concentration not given,,Vmax,1.01 ± 0.22 nmol/min/mg protein

# A few entries again:
Substance,target or system,test,test system,conditions,how to read,endpoint,value
CCc1c(C(=O)C(N)=O)c2c(OCC(=O)O)cccc2n1Cc1ccccc1,C2C12,,,"1 µM, added: PB venom",relative to: venom alone,viability difference,9.27%
O=C1Nc2ccc(Cl)cc2[C@@](C#CC2CC2)(C(F)(F)F)O1,HIV-1,"viral replication, single-round infection",RT mutant V106A/F227L/L234I,,,EC50,0.0034 ± 0.0003 µM
O=C(c1ccc(-c2ccccc2)cc1)C1CCCN(C(=O)CCc2ccncc2)C1 (stereo not shown),Lassa mammarenavirus,viral replication,Huh-7,"10 µM, 72 h",,remaining activity,45%
KKRWQLALSKGVHFV,human CD4 T cells,AIM,peptide,,,responding donors,18%
Cc1cn([C@H]2C[C@H](N=[N+]=[N-])[C@@H](CO)O2)c(=O)[nH]c1=O,HIV-1,viral replication,"human PBMC, subtype C 93MW959, CCR5-tropic clinical isolate",,,EC50,0.00436 ± 0.00247 µM
Nc1ncnc2c([C@@H]3N[C@H](CO)[C@@H](O)[C@H]3O)c[nH]c12,Marburg virus,viral RNA in cell lysate,"HeLa, Musoke","12.5 µM, 1 h",,inhibition,93.9%
